Experimental data gathered from unrelated publications.
± marks the error that the study gave.
Organism: Escherichia coli

CC[C@H](C)[C@H](NC(=O)CNC(=O)[C@H](CC(=O)O)NC(=O)[C@H](CCCNC(=N)N)NC(=O)[C@@H](NC(=O)[C@H](CC(N)=O)NC(=O)[C@H](CCCNC(=N)N)NC(=O)CNC(=O)[C@@H](NC(=O)[C@H](CCCCN)NC(=O)[C@H](CCC(=O)O)NC(=O)[C@@H](NC(=O)[C@H](CCC(=O)O)NC(=O)[C@H](CCCCN)NC(=O)[C@H](Cc1ccccc1)NC(=O)[C@@H](NC(=O)[C@H](CCCCN)NC(=O)[C@H](Cc1c[nH]c2ccccc12)NC(=O)[C@@H](N)CCCNC(=N)N)[C@@H](C)CC)[C@@H](C)CC)C(C)C)C(C)C)C(=O)N[C@H](C(=O)N[C@@H](CCCCN)C(=O)N[C@@H](C)C(=O)NCC(=O)N1CCC[C@H]1C(=O)N[C@@H](C)C(=O)N[C@H](C(=O)N[C@@H](C)C(=O)N[C@H](C(=O)N[C@H](C(=O)NCC(=O)N[C@@H](CCC(N)=O)C(=O)N[C@@H](C)C(=O)N[C@@H](C)C(=O)N[C@H](C(=O)N[C@H](C(=O)N[C@H](C(=O)N[C@@H](CCCCN)C(N)=O)C(C)C)C(C)C)[C@@H](C)O)C(C)C)C(C)C)C(C)C)[C@@H](C)CC
MIC (K1 ATCC 700973, Mueller-Hinton broth; 16 h, 37 °C; growth inhibition over 99%): 4 µM

c1ccc(CN(CCN(Cc2ccccn2)Cc2ccccn2)Cc2ccccn2)nc1
MIC (NDM-1 producing; compound alone): 125 µM

CO/N=C(\C(=O)N[C@@H]1C(=O)N2C(C(=O)O)=C(COC(C)=O)CS[C@H]12)c1csc(N)n1
MIC (BL21(DE3) carrying Ftu-1): < 1.75 µg/mL

CC[C@H](C)[C@H](NC(=O)CNC(=O)[C@H](CC(=O)O)NC(=O)[C@H](CCCNC(=N)N)NC(=O)[C@@H](NC(=O)[C@H](CC(N)=O)NC(=O)[C@H](CCCNC(=N)N)NC(=O)CNC(=O)[C@@H](NC(=O)[C@H](CCCCN)NC(=O)[C@H](CCC(=O)O)NC(=O)[C@@H](NC(=O)[C@H](CCCCN)NC(=O)[C@H](CCCCN)NC(=O)[C@H](C)NC(=O)[C@@H](NC(=O)[C@H](CCCCN)NC(=O)[C@H](C)NC(=O)[C@@H](N)CCCNC(=N)N)[C@@H](C)CC)[C@@H](C)CC)C(C)C)C(C)C)C(=O)N[C@H](C(=O)N[C@@H](CCCCN)C(=O)N[C@@H](C)C(=O)NCC(=O)N1CCC[C@H]1C(=O)N[C@@H](C)C(=O)N[C@H](C(=O)N[C@@H](C)C(=O)N[C@H](C(=O)N[C@H](C(=O)NCC(=O)N[C@@H](CCC(N)=O)C(=O)N[C@@H](C)C(=O)N[C@@H](C)C(=O)N[C@H](C(=O)N[C@H](C(=O)N[C@H](C(=O)N[C@@H](CCCCN)C(N)=O)C(C)C)C(C)C)[C@@H](C)O)C(C)C)C(C)C)C(C)C)[C@@H](C)CC
MIC (KCTC 1682, Mueller-Hinton broth; 16 h, 37 °C; growth inhibition over 99%): 4 µM

CC[C@H](C)[C@H](NC(=O)[C@H](CC(C)C)NC(=O)[C@H](CCCNC(=N)N)NC(=O)[C@H](Cc1c[nH]c2ccccc12)NC(=O)[C@H](CCCNC(=N)N)NC(=O)[C@H](CCCCN)NC(=O)[C@H](CCCNC(=N)N)NC(=O)[C@H](Cc1c[nH]c2ccccc12)NC(=O)[C@H](Cc1c[nH]cn1)NC(=O)[C@@H](NC(=O)CNC(=O)CNC(=O)[C@H](CCSC)NC(=O)[C@H](C)NC(=O)[C@@H](N)CC(C)C)C(C)C)C(=O)N[C@@H](C)C(=O)N[C@@H](CC(N)=O)C(=O)N[C@@H](CCSC)C(=O)N[C@@H](CCCNC(=N)N)C(=O)N[C@H](C(=O)N[C@@H](Cc1c[nH]c2ccccc12)C(=O)N[C@@H](Cc1c[nH]cn1)C(=O)N[C@@H](CCCNC(=N)N)C(=O)N1CCC[C@H]1C(=O)N[C@@H](CC(N)=O)C(=O)N[C@@H](Cc1ccccc1)C(=O)N[C@@H](CCCNC(=N)N)C(=O)N[C@@H](CC(=O)O)C(=O)N[C@@H](Cc1c[nH]cn1)C(=O)O)[C@@H](C)CC
MIC (broth microdilution; K88, Mueller-Hinton broth; 37 °C): 2.37 µM

CC(C)C[C@H](NC(=O)[C@H](Cc1ccc(O)cc1)NC(=O)[C@@H]1CCCN1C(=O)[C@@H]1CCCN1C(=O)[C@H](CCCCN)NC(=O)[C@H](CC(=O)O)NC(=O)[C@@H](N)C(C)C)C(=O)N1CCC[C@H]1C(=O)N[C@@H](CCCNC(=N)N)C(=O)N1CCC[C@H]1C(=O)N[C@@H](CCCNC(=N)N)C(=O)N1CCC[C@H]1C(=O)N1CCC[C@H]1C(=O)N[C@@H](CCCNC(=N)N)C(N)=O
MIC (broth microdilution; MRE600; 16 h, 37 °C, 25% Mueller-Hinton broth): 8 µg/mL

CC1(C)S[C@@H]2[C@H](NC(=O)C(C(=O)O)c3ccccc3)C(=O)N2[C@H]1C(=O)O (stereo partly drawn)
MIC (broth microdilution; Keio mutant JW0587-1; 18 h, enterobactin-related gene): 6.25 µg/mL

CCCCCCCCCC(=O)N[C@@H](Cc1c[nH]c2ccccc12)C(=O)N[C@H](CC(N)=O)C(=O)N[C@@H](CC(=O)O)C(=O)N[C@@H]1C(=O)NCC(=O)N[C@@H](CCCN)C(=O)N[C@@H](CC(=O)O)C(=O)N[C@H](C)C(=O)N[C@@H](CC(=O)O)C(=O)NCC(=O)N[C@H](CO)C(=O)N[C@@H]([C@H](C)CC(=O)O)C(=O)N[C@@H](CC(=O)c2ccccc2N)C(=O)O[C@@H]1C
MIC (broth dilution; K12 MG1655 efflux knock-out): 180 µM

CC1(C)SC2C(NC(=O)C(NC(=O)C3=C(O)C(Cc4ccc(O)cc4)NC3=O)c3ccccc3)C(=O)N2C1C(=O)O (stereo not drawn)
MIC (broth microdilution; isolate IU 356 A, KPC-3, VIM-1, TEM; with: clavulanic acid 6 µg/mL): > 200 µg/mL

CCCCCCC/C=C/C(=O)N1C(=O)/C(=C(\O)c2ccccc2)C(=O)C1CC(C)C (stereo not drawn)
MIC (K12 ΔtolC): 1.56 µg/mL

CC[C@H](C)[C@H](NC(=O)[C@H](CCCCN)NC(=O)[C@H](CCCNC(=N)N)NC(=O)[C@H](CCCNC(=N)N)NC(=O)[C@H](CC(C)C)NC(=O)[C@H](CCCCN)NC(=O)[C@H](CCCCN)NC(=O)[C@H](Cc1ccccc1)NC(=O)[C@H](CC(C)C)NC(=O)CNC(=O)[C@H](CCCNC(=N)N)NC(=O)[C@@H](N)CCCNC(=N)N)C(=O)N[C@@H](CCCCN)C(=O)N[C@@H](CCCCN)C(=O)NCC(=O)N[C@@H](Cc1ccccc1)C(=O)N[C@@H](CCCCN)C(=O)N[C@@H](CCCCN)C(=O)N[C@H](C(=O)N[C@@H](Cc1ccccc1)C(=O)N[C@@H](CCCCN)C(=O)N[C@@H](CCCNC(=N)N)C(=O)N[C@@H](CC(C)C)C(=O)N1CCC[C@H]1C(=O)N1CCC[C@H]1C(=O)N[C@H](C(=O)NCC(=O)N[C@H](C(=O)NCC(=O)N[C@H](C(=O)N[C@@H](CO)C(=O)O)C(C)C)C(C)C)C(C)C)[C@@H](C)CC
MIC (ATCC 25922; highest concentration 50 µM): 1.29 µM

CC(C)C[C@@H](NC(=O)CNC(=O)[C@@H](CCCCN)NC(=O)[C@@H](CC(C)C)NC(=O)[C@@H](CCCCN)NC(=O)[C@@H](CCCNC(=N)N)NC(=O)[C@@H](CC(C)C)NC(=O)[C@@H](CC(C)C)NC(=O)[C@@H](CCCNC(=N)N)NC(=O)[C@H](N)CCCNC(=N)N)C(=O)N[C@H](CCCCN)C(=O)N[C@H](CCCCN)C(=O)N[C@H](Cc1ccc(O)cc1)C(=O)N[C@H](CC(C)C)C(=O)N[C@H](Cc1ccc(O)cc1)C(=O)N[C@H](Cc1ccccc1)C(=O)N[C@H](CCCCN)C(=O)N[C@H](CC(C)C)C(=O)N[C@H](CCC(N)=O)C(=O)N[C@H](CC(C)C)C(=O)N[C@H](CC(C)C)C(=O)N[C@H](CCCCN)C(=O)N[C@H](CCCCN)C(N)=O
MIC (KCTC 1682, Mueller-Hinton broth; with: 4.5 mM KCl): 8 µM

CC[C@H](C)[C@H](NC(=O)[C@H](CCCCN)NC(=O)[C@H](CC(=O)O)NC(=O)[C@H](CC(C)C)NC(=O)[C@@H](NC(=O)[C@H](CC(N)=O)NC(=O)[C@H](CC(C)C)NC(=O)[C@@H](NC(=O)[C@H](Cc1ccccc1)NC(=O)[C@H](CCCCN)NC(=O)[C@H](CCCCN)NC(=O)CNC(=O)[C@H](C)NC(=O)[C@H](CC(N)=O)NC(=O)[C@H](CCCCN)NC(=O)[C@H](Cc1ccccc1)NC(=O)[C@H](CC(N)=O)NC(=O)[C@H](CCC(=O)O)NC(=O)[C@H](Cc1c[nH]c2ccccc12)NC(=O)[C@H](CC(C)C)NC(=O)[C@@H](N)CO)[C@@H](C)CC)[C@@H](C)CC)C(=O)N[C@@H](CCCNC(=N)N)C(N)=O
MIC (ATCC 8739; overnight, 37 °C, with: 2 mM CaCl2): 2 µM

CC(C)C[C@H](NC(=O)[C@H](Cc1c[nH]c2ccccc12)NC(=O)[C@H](CC(C)C)NC(=O)[C@@H](NC(=O)[C@H](CC(C)C)NC(=O)[C@H](CCCNC(=N)N)NC(=O)[C@@H](N)CCCNC(=N)N)[C@@H](C)O)C(=O)N[C@H](C(=O)N[C@@H](CC(C)C)C(=O)N[C@@H](CCCNC(=N)N)C(=O)N[C@@H](CCCNC(=N)N)C(N)=O)[C@@H](C)O
MIC (UB1005; 24 h, 37 °C): 2 µM

CC1(C)S[C@@H]2[C@H](NC(=O)[C@H](N)c3ccc(O)cc3)C(=O)N2[C@H]1C(=O)O
MIC (broth microdilution; BL21(DE3), Mueller-Hinton broth; 20 h): 1.59 µM

CC[C@H](C)[C@H](N)C(=O)N[C@@H](CO)C(=O)N[C@@H](Cc1ccccc1)C(=O)N[C@@H](CC(C)C)C(=O)NCC(=O)N[C@@H](CO)C(=O)N[C@@H](CCCCN)C(=O)N[C@H](C(=O)N[C@H](C(=O)N[C@H](C(=O)N[C@@H](CC(C)C)C(=O)N[C@@H](CC(C)C)C(=O)N[C@@H](CCCCN)C(=O)N[C@@H](CCCNC(=N)N)C(=O)N[C@@H](CCCNC(=N)N)C(=O)N[C@@H](CCCNC(=N)N)C(=O)N[C@@H](CCCNC(=N)N)C(=O)N[C@@H](CCCNC(=N)N)C(=O)N[C@@H](CCCNC(=N)N)C(=O)N[C@@H](CCCNC(=N)N)C(N)=O)C(C)C)C(C)C)C(C)C
MIC (checkerboard; 24 h, 37 °C, alone, rifampicin plate): 8 µM

CC(C)C[C@@H]1NC(=O)[C@H](Cc2ccccc2)NC(=O)[C@H](Cc2ccc(O)cc2)NC(=O)[C@H](CC(C)C)NC(=O)[C@H](CCC(=O)O)NC(=O)[C@H](Cc2ccccc2)NC(=O)[C@H](CCCNC(=N)N)NC(=O)[C@H](CCC(N)=O)NC(=O)[C@H](CC(C)C)NC(=O)[C@H](CC(=O)O)NC(=O)[C@@H]2CCCN2C(=O)[C@H](CCCCN)NC(=O)[C@H](C(C)C)NC(=O)[C@H](CC(N)=O)NC(=O)[C@H](Cc2ccc(O)cc2)NC(=O)[C@H]([C@@H](C)O)NC(=O)[C@@H](N)CSSC[C@@H](C(=O)O)NC(=O)[C@H]([C@@H](C)O)NC(=O)[C@H](C(C)C)NC(=O)[C@H]([C@@H](C)O)NC(=O)CNC1=O
MIC (broth dilution; laboratory strain; 24 h): > 40 µM

CC[C@H](C)[C@H](NC(=O)[C@H](CC(C)C)NC(=O)[C@H](CCCCN)NC(=O)[C@@H](NC(=O)[C@H](C)NC(=O)[C@H](CCC(=O)O)NC(=O)[C@H](Cc1c[nH]cn1)NC(=O)[C@@H](NC(=O)[C@H](CCCCN)NC(=O)[C@H](CCC(N)=O)NC(=O)[C@H](Cc1ccccc1)NC(=O)[C@@H](N)C(C)C)[C@@H](C)CC)[C@@H](C)CC)C(N)=O
MIC (broth microdilution; CCARM 1238 resistant; 18 h, 37 °C): > 128 µM

CC[C@H](C)[C@H](NC(=O)[C@H](CCCNC(=N)N)NC(=O)[C@H](CCC(N)=O)NC(=O)[C@@H](NC(=O)[C@@H](NC(=O)[C@H](CCCNC(=N)N)NC(=O)[C@@H](N)CCCNC(=N)N)[C@@H](C)CC)C(C)C)C(=O)N[C@@H](CCCNC(=N)N)C(=O)N[C@@H](CC(=O)O)C(=O)N[C@@H](Cc1ccccc1)C(=O)N[C@@H](CC(C)C)C(=O)N[C@@H](CCCNC(=N)N)C(N)=O
MIC (broth microdilution; K12; 16 h, 37 °C): 30 ± 11 µM

CC(C)Oc1c(NC(=O)c2ccc(NC(=O)[C@H](CC(N)=O)NC(=O)c3ccc(NC(=O)c4ccc(C#N)cc4)cc3)cc2)ccc(C(=O)N/N=C/c2ccc(C(=O)O)s2)c1O
MIC (BW25113; 18 h, 37 °C, dark-adapted state): 0.03 µg/mL

CC[C@H](C)CCCCC(=O)N[C@@H](CCN)C(=O)N[C@H](C(=O)N[C@@H](CCN)C(=O)N[C@H]1CCNC(=O)[C@H]([C@@H](C)O)NC(=O)[C@H](CCN)NC(=O)[C@H](CCN)NC(=O)[C@H](CC(C)C)NC(=O)[C@@H](Cc2ccccc2)NC(=O)[C@H](CCN)NC1=O)[C@@H](C)O
MIC (ATCC 25922; 18 h, 37 °C, 0.3 mM ZnSO4 LB): 2 µg/mL
